Results gathered from unrelated publications.
Every numbered part comes from another study and shows a few of its results, in no order. Changes are numbered by the printed parent chain.

Set 1 — target: CCNB1, cyclin fold, Cln2 fusion (human); technique: yeast growth competition, sequencing; matrix: yeast; setting: strong parent motif; baseline: not given; direction: higher = stronger binding
Starting sequence: PKN2 docking peptide (human); VSAVRKLDFSDTM
`VSAVRVLDFSDTM [K6V]`: “normalised enrichment score” 1.89.
`VSAVRKLDTSDTM [F9T]`: “normalised enrichment score” 0.168.
`VSAVRKYDFSDTM [L7Y]` — result for “normalised enrichment score”: -0.0219.
`VSAVRKLDFSWTM [D11W]`: “normalised enrichment score” 1.14.
`VSAVRKLDRSDTM [F9R]`: “normalised enrichment score” 0.266.
Under “normalised enrichment score”, `VSQVRKLDFSDTM [A3Q]` is recorded as 0.402.
`VSARRKLDFSDTM [V4R]`: “normalised enrichment score” 2.57.
Under “normalised enrichment score”, `VCAVRKLDFSDTM [S2C]` is recorded as 3.59.
Under “normalised enrichment score”, `VSAVRKLDFSMTM [D11M]` is recorded as 2.34.
`VSAVRKLDFSYTM [D11Y]` — result for “normalised enrichment score”: 2.17.
Under “normalised enrichment score”, `VSAVRKLWFSDTM [D8W]` is recorded as 1.57.
For `VSAVRKLDFSDEM [T12E]`, “normalised enrichment score” read 4.67.
`VSMVRKLDFSDTM [A3M]`: “normalised enrichment score” 2.72.
`VHAVRKLDFSDTM [S2H]` — result for “normalised enrichment score”: 3.
Under “normalised enrichment score”, `VSATRKLDFSDTM [V4T]` is recorded as 1.8.

Set 2 — technique: RNA Bind-n-Seq; form: RNA; matrix: in vitro; tested at: 365 nM; baseline: no-protein control; direction: higher = stronger binding
Target: RNA binding protein fox-1 homolog 2, RRM domain, GST-SBP tag (RBFOX2, Homo sapiens, UniProt O43251-10, residues 100-194)
Setting: natural RNA segment, single round, ends assumed
Construct (chain): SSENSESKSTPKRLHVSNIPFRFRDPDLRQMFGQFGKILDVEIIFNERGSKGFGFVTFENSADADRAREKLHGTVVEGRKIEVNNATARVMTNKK
`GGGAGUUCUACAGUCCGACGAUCAAUGCAGGGAAUCCGAGCAGAACAAUCGGUUAGUGAAUUGAAUGGAAAUAAAUGCUUUAGUUAUAAAUGACCCCUGUACUCUGUAAGUUCCAAGAAAAAGAUCCUGGCACUGGAAUUCUCGGGUGCCAA` — result for “RBNS enrichment (R)”: 0.677.
For `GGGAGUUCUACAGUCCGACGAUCGAAAUGUCUCUAAAACGUUGAUCAAUCUGAAGCUUACAGAUUGGAAACUGGGCCAGGUCAGCCCUGGCGGUGGAGUCCAGAGACAGAGAGAAGGCUGCAGGGAGGGGAGAUGGAAUUCUCGGGUGCCAA`, “RBNS enrichment (R)” read 0.799.
Under “RBNS enrichment (R)”, `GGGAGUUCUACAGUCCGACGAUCCUUAAGUUUAAAAUAAAGCUUUUUAUACUGUAGCUUGAACUGUUUACCAUACAUUCUUUUGUAGUAAAAUAUAAGUCAGAUUUCAAUCAUCUAUGAUUCAAGACAGUGGGUGGAAUUCUCGGGUGCCAA` is recorded as 0.36.
`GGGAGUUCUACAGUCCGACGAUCUAUAUUCCUGUAAAUGUCAGUUACUGAAAAUGAGUCCAAUGUAAGUAGUUUAGCUUGUUUAUUGCAAUGCUGGCCUCAACACAACAGAAUAAAAAUGGUAGAAAGUACUCUGGAAUUCUCGGGUGCCAA`: “RBNS enrichment (R)” 1.01.
`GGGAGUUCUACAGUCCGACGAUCUCUUGUCCCUGAACUUCGUUGUACCAGUGCAUGGAGAGAAAAUUUUGUCCUCUUGUCUUAGAGUUGUGUGUAAAUCAAGGAAGCCAUCAUUAAAUUGUUUUAUUUCUCUCUGGAAUUCUCGGGUGCCAA` — result for “RBNS enrichment (R)”: 5.64.
For `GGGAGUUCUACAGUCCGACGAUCAAGUUGAUUAUCUUCUCUUGAUAUCUUGGUUAAAACUGGCCACAAGAUAAACCAUUUGGAUAUAUUUGAUUUUGUCAUAACAUUUGUAAAGUAUAUGUUUCUCAUGAGACUGGAAUUCUCGGGUGCCAA`, “RBNS enrichment (R)” read 0.472.
`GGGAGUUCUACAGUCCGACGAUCCUUUGGCUUACCCCGUGCUCCUGGGUUCUAUGGUGUUUCUAUAAUUAUGAAUAGUGUUGCACUGUAAUCUAUCAUAUAGAGCUAUAUGUAUGGAAAUUUUUGAUCAGUUUUGGAAUUCUCGGGUGCCAA` — result for “RBNS enrichment (R)”: 0.501.
`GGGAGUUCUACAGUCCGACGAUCAGGAACUUCCGCACCUCCUGAGGCCCUGGAUGAUUCUAAUUGUUAGAAAUUCUAAUUGUUAGAAAUCCUUCCUUAUAAUGAAUGAAUUCUGCUUUCCUAUAAUUUCUACCUGGAAUUCUCGGGUGCCAA` — result for “RBNS enrichment (R)”: 0.26.
`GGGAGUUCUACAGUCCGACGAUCCAAUAAAUGGGAGGAAUGGGUGUAGAGUUGAUGCAGCCAAGAAUGUCCGUCCUCUGGGCGGCACAAGUCCCGCAGGCUCUGUGUCUGUUAGGUGAUGGAGCCCAUUCAAGUGGAAUUCUCGGGUGCCAA`: “RBNS enrichment (R)” 0.269.
Under “RBNS enrichment (R)”, `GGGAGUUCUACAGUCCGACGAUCCUGUAGCUGCCGAACCAGUAGCUCCUAAGAGCACAACCCAGGAUGGCCCAUCUGCUGCCCACCAAGUCCCUUUCCAGCCACUGUGUGCUGGGGGCUUUCGGGGGCAGUUGUGGAAUUCUCGGGUGCCAA` is recorded as 0.248.
Under “RBNS enrichment (R)”, `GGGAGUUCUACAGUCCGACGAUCAUAAAGAAAAUAAAAUCCUUCUGUAAUAAUCAAAUAAAGUACUUCCCAUAAUCAAAACCAAAUUGGUAUCUUCAGAGCCUAUUAAGUCUCAUCUUUUAUAAAGUUCGGCUUGGAAUUCUCGGGUGCCAA` is recorded as 0.505.
`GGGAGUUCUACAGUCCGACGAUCACUGUUUCCCCACCACAGAUGUCCUGAGAUUCAGUUAAAACGAAACAUGCUGCAUCUCCAGAGAUGUGCCAAGCCAAGGAGAAUGCUAGAAGCAGAGUAAAGCUUACCCCUGGAAUUCUCGGGUGCCAA`: “RBNS enrichment (R)” 0.448.

Set 3 — technique: RNA Bind-n-Seq; form: RNA; matrix: in vitro; tested at: 200 nM; setting: whole 134-nt RNA, ends assumed; together with: 150 mM KCl; baseline: input library; direction: higher = stronger binding
Target: Fragile X messenger ribonucleoprotein 1, C-terminal low-complexity region (Fmr1, Mus musculus, UniProt P35922)
With `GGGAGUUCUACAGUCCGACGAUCUCAAGUCCUGUGCUACACAUCGUAUGUACCGAAUCGGGAAGGGGAAGGGAAGGGGAAAGUAUUAUGUUACGCCGUUCGGAUCUGCACUUCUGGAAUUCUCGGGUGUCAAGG` the log2 enrichment was 0.532.
`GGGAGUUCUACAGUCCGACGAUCAGUCCUGUGCUACACAUCGUAUGUACCGAAUCGGGAAAAAAAGGGUUUUUGGGUGGGAAAGUAUUAUGUUACGCCGUUCGGAUCUGCACUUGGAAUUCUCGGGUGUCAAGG` gave a log2 enrichment of 0.623.
`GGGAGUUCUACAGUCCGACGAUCCACAGACAAAAAGCACCCACACAGACACAGAGGGAAGGGGUUGGGAUGGGGACAGGGUGCACAGCAGGGCGGGGUAGGACCCCAGCCCCUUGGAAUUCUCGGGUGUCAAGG` gave a log2 enrichment of 1.14.
The log2 enrichment of `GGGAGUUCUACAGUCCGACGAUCUGGGAGGUGGAUUUUGUUUAUUUUUUUAGCUCAUUUCCAGGGGUGGGAAUUUUAUUUUAAUAUGUGUCAUGAAUAAAGUUGUUUUUGAAAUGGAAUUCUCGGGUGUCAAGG` is reported as 0.186.
With `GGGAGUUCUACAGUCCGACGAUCAGUCCUGUGCUACACAUCGUAUGUACCGAAUCGGGGCCCCGGGGCCCCGGGCCCCGGAAAGUAUUAUGUUACGCCGUUCGGAUCUGCACUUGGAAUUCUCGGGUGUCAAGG` the log2 enrichment was 0.736.
`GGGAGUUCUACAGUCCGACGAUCACCAUGCAGGUGGGCAUCUUUGGGAAGUGGGGCAAGGGGUGGAUAGGGAGGGGGGUAACACUUUGGGAACAGGUGGUCCCAGGUCGUUUCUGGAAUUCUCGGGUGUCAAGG` gave a log2 enrichment of 0.797.
`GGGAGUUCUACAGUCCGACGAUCGUGCUACACAUCGUAUGUACCGAAUCGGGGUUUUUUUGGGGAAAAAAAGGGGAAAAAAAGGGGAAAGUAUUAUGUUACGCCGUUCGGAUCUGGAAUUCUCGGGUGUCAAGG` has a log2 enrichment of 0.0858.
With `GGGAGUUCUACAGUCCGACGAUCUCAAGUCCUGUGCUACACAUCGUAUGUACCGAAUCGGUUUUUUUGGAAAGGAGGAAAGUAUUAUGUUACGCCGUUCGGAUCUGCACUUCCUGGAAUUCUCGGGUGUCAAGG` the log2 enrichment was -0.382.
For `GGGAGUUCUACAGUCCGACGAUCCUGUGCUACACAUCGUAUGUACCGAAUCGGGGUUUUUUUGGGGUUUUUGGGGAAAAAGGGGAAAGUAUUAUGUUACGCCGUUCGGAUCUGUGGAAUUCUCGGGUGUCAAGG`, the log2 enrichment was -0.261.
With `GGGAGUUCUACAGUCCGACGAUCGAAAUUUGGUUAUGUGGAUUUUGAAUCUGCUGAAGACCUGGAGAAAGCGUUGGAACUCACUGGUUUGAAAGUCUUUGGCAAUGAAAUUAAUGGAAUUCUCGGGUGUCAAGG` the log2 enrichment was -2.06.
The log2 enrichment of `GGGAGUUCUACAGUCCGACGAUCUCAAGUCCUGUGCUACACAUCGUAUGUACCGAAUCGGUUUGGUUUGGGGUUUGGAAAGUAUUAUGUUACGCCGUUCGGAUCUGCACUUCCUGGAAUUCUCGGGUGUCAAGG` is reported as -0.402.
For `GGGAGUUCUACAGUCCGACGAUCCAAGUCCUGUGCUACACAUCGUAUGUACCGAAUCGGAGGAAAAAGGUUUUUUUGGAAAGUAUUAUGUUACGCCGUUCGGAUCUGCACUUCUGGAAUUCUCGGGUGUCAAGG`, the log2 enrichment was -0.905.
With `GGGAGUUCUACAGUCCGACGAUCGUCCUGUGCUACACAUCGUAUGUACCGAAUCGGGUUUUUUGGUUUUUUGGUUUUUUGGAAAGUAUUAUGUUACGCCGUUCGGAUCUGCACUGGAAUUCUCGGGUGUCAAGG` the log2 enrichment was -0.919.
`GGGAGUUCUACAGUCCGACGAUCGAAAGAAGUAAAAACAAAUGGAAAUGCUUCGGAUAGUGGCAGGGGUGGGGGUUGCUAAGGAAAGGGUGGGAUGGGAGUGGGUAAAGAGUUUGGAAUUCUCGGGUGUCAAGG` gave a log2 enrichment of -0.29.

Other studies, line by line
For `PhoQ, residues 284 288 289 292 302 303 SCCLKL`, the fold induction was 10.5 (PhoP, residues 12 14 15 18 19 QYCSL (Escherichia coli, UniProt P23836); Sort-seq, refers to: YFP reporter; E. coli; PhoQ-PhoP variant library, together with: 10 µM Mg2+; baseline: high Mg2+ state, higher = stronger signaling).

Some of these lines once more (set 1):
`VSAVRKLDRSDTM [F9R]`: “normalised enrichment score” 0.266.
Under “normalised enrichment score”, `VSQVRKLDFSDTM [A3Q]` is recorded as 0.402.
`VSARRKLDFSDTM [V4R]`: “normalised enrichment score” 2.57.
Under “normalised enrichment score”, `VCAVRKLDFSDTM [S2C]` is recorded as 3.59.
